Measurements collected from several papers.
Each numbered part is a random draw from the data of one study; scales do not carry over between parts.
Chain of UniProt Q16584 (whole entry, looked up): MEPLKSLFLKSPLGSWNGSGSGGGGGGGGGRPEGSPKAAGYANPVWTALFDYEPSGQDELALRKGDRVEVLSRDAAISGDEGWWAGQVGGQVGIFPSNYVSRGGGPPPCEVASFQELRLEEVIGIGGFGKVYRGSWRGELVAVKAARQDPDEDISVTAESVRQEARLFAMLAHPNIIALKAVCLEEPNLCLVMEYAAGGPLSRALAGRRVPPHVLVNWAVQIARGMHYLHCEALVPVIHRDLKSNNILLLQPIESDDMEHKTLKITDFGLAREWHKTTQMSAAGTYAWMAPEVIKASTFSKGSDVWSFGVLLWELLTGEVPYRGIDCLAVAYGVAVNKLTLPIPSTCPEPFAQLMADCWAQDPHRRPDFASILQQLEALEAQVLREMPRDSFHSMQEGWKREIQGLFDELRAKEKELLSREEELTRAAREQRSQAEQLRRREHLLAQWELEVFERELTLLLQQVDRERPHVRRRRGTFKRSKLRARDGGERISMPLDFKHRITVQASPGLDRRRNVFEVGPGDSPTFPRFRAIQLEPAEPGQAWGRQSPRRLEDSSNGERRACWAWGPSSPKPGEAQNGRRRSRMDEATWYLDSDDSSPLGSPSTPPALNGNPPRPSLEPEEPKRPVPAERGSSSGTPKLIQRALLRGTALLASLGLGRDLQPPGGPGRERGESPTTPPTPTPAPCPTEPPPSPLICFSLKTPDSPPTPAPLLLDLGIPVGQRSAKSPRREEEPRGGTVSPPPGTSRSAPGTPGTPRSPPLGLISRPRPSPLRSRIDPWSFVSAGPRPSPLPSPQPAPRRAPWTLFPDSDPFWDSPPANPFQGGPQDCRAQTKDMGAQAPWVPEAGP
Chain of UniProt P36897 (whole entry, looked up): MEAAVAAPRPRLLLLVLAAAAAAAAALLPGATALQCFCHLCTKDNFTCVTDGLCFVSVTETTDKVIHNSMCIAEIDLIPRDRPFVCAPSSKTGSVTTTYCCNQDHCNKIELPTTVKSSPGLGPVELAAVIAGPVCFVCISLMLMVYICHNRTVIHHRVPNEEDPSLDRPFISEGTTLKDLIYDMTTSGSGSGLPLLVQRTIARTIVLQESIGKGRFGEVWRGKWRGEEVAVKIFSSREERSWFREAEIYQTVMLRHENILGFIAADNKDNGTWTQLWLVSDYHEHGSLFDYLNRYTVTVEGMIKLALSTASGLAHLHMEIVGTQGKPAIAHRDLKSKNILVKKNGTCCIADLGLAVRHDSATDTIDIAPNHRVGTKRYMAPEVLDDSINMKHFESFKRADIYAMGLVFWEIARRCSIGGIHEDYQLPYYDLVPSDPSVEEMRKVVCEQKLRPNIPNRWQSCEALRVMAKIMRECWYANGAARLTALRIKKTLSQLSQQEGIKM
Chain of UniProt Q05655 (whole entry, looked up): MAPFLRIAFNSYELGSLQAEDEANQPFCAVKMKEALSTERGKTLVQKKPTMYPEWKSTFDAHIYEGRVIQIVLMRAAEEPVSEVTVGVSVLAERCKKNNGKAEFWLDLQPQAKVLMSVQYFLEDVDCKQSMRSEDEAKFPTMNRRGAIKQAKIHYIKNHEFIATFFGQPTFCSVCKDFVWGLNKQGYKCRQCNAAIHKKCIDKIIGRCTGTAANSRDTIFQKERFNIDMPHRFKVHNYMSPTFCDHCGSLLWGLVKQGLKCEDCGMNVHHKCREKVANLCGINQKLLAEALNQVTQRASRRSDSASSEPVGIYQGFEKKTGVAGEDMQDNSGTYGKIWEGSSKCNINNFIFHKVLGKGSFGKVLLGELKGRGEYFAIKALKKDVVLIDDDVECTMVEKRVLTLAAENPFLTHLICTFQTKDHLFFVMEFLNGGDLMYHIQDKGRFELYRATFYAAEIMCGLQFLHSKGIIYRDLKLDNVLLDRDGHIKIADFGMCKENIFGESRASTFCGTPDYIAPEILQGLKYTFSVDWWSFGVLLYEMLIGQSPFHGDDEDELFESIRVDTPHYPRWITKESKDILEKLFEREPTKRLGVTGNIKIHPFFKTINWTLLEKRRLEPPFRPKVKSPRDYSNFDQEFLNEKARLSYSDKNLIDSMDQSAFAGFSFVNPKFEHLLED
Chain of UniProt P10721 (whole entry, looked up): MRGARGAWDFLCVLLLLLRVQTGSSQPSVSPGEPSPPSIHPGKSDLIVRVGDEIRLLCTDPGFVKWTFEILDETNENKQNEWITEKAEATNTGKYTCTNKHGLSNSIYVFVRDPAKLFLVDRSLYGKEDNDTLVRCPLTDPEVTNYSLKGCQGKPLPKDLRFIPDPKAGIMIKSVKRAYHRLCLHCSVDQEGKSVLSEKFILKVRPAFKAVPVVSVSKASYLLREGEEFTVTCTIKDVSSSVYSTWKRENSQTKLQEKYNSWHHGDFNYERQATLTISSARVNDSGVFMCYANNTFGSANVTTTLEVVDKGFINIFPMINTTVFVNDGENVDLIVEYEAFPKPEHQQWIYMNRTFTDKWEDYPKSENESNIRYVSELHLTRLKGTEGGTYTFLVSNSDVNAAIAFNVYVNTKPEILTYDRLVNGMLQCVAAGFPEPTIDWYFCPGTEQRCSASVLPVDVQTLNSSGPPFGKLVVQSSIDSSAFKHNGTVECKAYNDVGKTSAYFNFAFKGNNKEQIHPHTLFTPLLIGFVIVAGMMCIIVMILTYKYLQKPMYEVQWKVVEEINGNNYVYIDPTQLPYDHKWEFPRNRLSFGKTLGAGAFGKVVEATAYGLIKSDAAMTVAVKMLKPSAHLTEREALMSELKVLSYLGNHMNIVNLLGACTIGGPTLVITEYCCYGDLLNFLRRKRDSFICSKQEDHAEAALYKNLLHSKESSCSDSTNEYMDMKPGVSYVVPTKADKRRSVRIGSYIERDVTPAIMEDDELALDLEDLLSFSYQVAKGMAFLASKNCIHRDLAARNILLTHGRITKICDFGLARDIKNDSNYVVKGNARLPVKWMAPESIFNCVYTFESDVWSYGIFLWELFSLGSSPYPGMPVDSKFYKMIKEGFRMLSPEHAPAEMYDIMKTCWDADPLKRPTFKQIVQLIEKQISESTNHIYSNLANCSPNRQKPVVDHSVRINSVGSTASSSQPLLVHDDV
Chain of UniProt Q9Y2H1 (whole entry, looked up): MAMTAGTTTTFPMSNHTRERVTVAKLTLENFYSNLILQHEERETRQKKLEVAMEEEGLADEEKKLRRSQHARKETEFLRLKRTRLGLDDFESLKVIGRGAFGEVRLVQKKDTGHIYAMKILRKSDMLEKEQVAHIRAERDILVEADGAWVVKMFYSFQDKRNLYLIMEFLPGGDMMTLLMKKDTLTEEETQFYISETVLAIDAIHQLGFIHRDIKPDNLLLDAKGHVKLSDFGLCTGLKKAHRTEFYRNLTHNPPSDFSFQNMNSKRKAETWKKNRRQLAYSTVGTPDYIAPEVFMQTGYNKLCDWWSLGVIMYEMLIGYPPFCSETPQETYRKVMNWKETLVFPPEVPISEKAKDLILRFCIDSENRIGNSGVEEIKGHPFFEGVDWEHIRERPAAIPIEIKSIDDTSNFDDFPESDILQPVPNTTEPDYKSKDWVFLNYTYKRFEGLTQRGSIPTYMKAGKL
Chain of UniProt Q13546 (whole entry, looked up): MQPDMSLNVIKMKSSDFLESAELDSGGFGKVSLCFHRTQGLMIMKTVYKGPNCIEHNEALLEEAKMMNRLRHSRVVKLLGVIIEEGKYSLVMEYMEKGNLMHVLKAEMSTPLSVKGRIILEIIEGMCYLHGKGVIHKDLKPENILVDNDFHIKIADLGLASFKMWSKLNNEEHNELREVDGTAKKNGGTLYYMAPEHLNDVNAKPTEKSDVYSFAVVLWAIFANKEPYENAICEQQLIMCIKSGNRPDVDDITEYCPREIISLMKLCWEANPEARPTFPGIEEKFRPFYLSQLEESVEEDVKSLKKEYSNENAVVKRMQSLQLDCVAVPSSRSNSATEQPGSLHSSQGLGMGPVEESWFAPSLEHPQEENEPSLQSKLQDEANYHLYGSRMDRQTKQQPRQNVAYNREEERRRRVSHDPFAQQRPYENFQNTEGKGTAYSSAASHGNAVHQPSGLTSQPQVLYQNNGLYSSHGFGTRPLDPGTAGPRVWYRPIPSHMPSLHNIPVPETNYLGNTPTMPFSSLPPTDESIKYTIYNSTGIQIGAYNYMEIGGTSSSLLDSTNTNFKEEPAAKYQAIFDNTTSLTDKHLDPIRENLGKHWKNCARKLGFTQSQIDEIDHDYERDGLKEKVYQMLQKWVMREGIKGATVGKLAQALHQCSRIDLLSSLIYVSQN

Series 1
Compound: O=C(Nc1cnn(-c2csc(C(=O)NC3COC3)c2)c1)Nc1ccccc1Cl
Tested at: 5 µM
Measurement: remaining activity
FGFR4 (Homo sapiens, UniProt P22455); enzyme activity; relative to: untreated control: 88%
RPS6KB1 (Homo sapiens, UniProt P23443); enzyme activity; relative to: untreated control: 91.1%
TGFBR1 (Homo sapiens, UniProt P36897); enzyme activity; relative to: untreated control: 101%
STK38L (Homo sapiens, UniProt Q9Y2H1); enzyme activity; relative to: untreated control: 100%
Cyclin-dependent kinase 1, with cyclin A (CDK1, Homo sapiens, UniProt P06493); enzyme activity; relative to: untreated control: 94.6%
MAP3K11 (Homo sapiens, UniProt Q16584); enzyme activity; relative to: untreated control: 92.6%
Cell division cycle 7-related protein kinase, with DBF4 (CDC7, Homo sapiens, UniProt O00311); kinase activity, kinase panel profiling: 111%
KSR2 (Homo sapiens, UniProt Q6VAB6); enzyme activity, inhibitor: 107%
PRKCD (Homo sapiens, UniProt Q05655); enzyme activity; relative to: untreated control: 107%
PKN3 (Homo sapiens, UniProt Q6P5Z2); enzyme activity, inhibitor: 91.6%
IGF1R (Homo sapiens, UniProt P08069); enzyme activity; relative to: untreated control: 94.9%

Series 2
Target: Calcium/calmodulin-dependent protein kinase type II subunit alpha (CAMK2A, Homo sapiens, UniProt Q9UQM7)
Chain of UniProt Q9UQM7 (whole entry, looked up): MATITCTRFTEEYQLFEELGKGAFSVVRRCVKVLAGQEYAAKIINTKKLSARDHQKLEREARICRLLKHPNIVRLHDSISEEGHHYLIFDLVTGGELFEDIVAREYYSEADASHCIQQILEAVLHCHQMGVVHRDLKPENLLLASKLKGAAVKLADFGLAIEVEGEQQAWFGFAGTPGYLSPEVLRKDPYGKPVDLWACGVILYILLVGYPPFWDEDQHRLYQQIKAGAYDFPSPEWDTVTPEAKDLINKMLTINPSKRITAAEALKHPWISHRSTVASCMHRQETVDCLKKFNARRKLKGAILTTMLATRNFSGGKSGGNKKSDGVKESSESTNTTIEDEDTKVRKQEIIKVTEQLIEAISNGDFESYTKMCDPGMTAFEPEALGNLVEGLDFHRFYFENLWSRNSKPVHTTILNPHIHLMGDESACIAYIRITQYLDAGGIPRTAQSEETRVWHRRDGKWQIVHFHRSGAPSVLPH
Observed: enzyme activity
Action: inhibitor
Tested at: 10 µM
Measurement: inhibition
Cc1ccc(Nc2nccc(N(C)c3ccc4c(C)n(C)nc4c3)n2)cc1S(N)(=O)=O: 0%
CC(=O)c1ccccc1C: 13%
COc1cc(O[C@@H]2O[C@H](CO)[C@@H](O)[C@H](O)[C@H]2O)c2c(O)c(C(C)=O)c(C)cc2c1: 6%
NC(=O)NC1NC(=O)NC1=O (stereo not drawn): 1%
CNCC(=O)N[C@@H](CCCNC(=N)N)C(=O)N[C@H](C(=O)N[C@@H](Cc1ccc(O)cc1)C(=O)N[C@H](C(=O)N[C@@H](Cc1cnc[nH]1)C(=O)N1CCC[C@H]1C(=O)N[C@@H](C)C(=O)O)C(C)C)C(C)C: -2%
CC(CC(=O)O)C(=O)O (stereo not drawn): 22%
O=[N+]([O-])c1cncn1CCN1CCOCC1: -7%
O=C(O)CCCCCCCCC(=O)O: -2%
Cc1c(O)cc2c(c1C)O[C@](C)(CCC[C@H](C)CCC[C@H](C)CCCC(C)C)CC2: 4%

Series 3
SMILES: CC1=C(C#N)C(c2ccc3c(c2)c(NC(=O)c2ccccc2C)nn3C)C(C#N)=C(C)N1
Observed: cell-free assay
Technique: competition with immobilised ligand
Tested at: 1 µM
Measurement: remaining binding
Tyrosine-protein kinase ABL1, phosphorylated (ABL1, Homo sapiens, UniProt P00519, M351T): 94%
Tyrosine-protein kinase ABL1, phosphorylated (ABL1, Homo sapiens, UniProt P00519, Q252H): 73%
MAP3K11 (Homo sapiens, UniProt Q16584): 96%
EGFR (Homo sapiens, UniProt P00533, G719S): 87%
PRKG1 (Homo sapiens, UniProt Q13976): 100%
SBK3 (Homo sapiens, UniProt P0C264): 100%
RIPK1 (Homo sapiens, UniProt Q13546): 100%
MYLK (Homo sapiens, UniProt Q15746): 100%
KIT (Homo sapiens, UniProt P10721): 100%
EGFR (Homo sapiens, UniProt P00533, L861Q): 69%

Series 4
Target: Serine/threonine-protein kinase 17A (STK17A, Homo sapiens, UniProt Q9UEE5)
Chain of UniProt Q9UEE5 (whole entry, looked up): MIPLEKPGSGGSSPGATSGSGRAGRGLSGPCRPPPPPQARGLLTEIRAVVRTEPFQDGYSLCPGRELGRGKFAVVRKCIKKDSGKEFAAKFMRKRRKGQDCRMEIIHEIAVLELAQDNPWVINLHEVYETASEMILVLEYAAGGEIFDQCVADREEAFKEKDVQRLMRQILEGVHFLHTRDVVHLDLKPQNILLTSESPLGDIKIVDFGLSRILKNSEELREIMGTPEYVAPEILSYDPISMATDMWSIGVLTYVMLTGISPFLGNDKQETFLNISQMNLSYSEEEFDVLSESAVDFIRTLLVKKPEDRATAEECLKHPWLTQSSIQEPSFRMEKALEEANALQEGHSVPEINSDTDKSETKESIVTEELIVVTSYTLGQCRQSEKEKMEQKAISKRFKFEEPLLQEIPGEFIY
Observed: enzyme activity
Action: inhibitor
Tested at: 0.5 µM
Relative to: control
Measurement: remaining activity
COc1cc2ncnc(Nc3ccc(Oc4ccccc4)cc3)c2cc1OC: 96.3%
CN(C)c1ccc(C=C2C(=O)Nc3ccccc32)cc1: 93.8%
Cn1c2ccccc2c2c3c(c4c5ccccc5n(CCC#N)c4c21)CNC3=O: 85.3%
CNC(=O)c1cc(Oc2ccc(NC(=O)Nc3ccc(Cl)c(C(F)(F)F)c3)cc2)ccn1: 96%
NCCNc1ncc(C(N)=O)c(Nc2cccc(C(F)(F)F)c2)n1: 114%
O=C(O)c1ccc2c3c1cccc3c(=O)n1c3ccccc3nc21: 73.4%
Nc1ncnc2n[nH]c(Nc3ccc(F)cc3)c12: 88.1%
Cn1sc(=O)n(Cc2ccccc2)c1=O: 101%
COc1ccc(C(=O)Nc2sc3c(c2C(N)=O)CCCC3)cc1OC: 98.5%
O=C(Nc1cccc(Nc2cc(Nc3cccc(C(F)(F)F)c3)ncn2)c1)C1CC1: 99.2%
N#CC(C#N)=C(N)/C(C#N)=C/c1ccc(O)cc1: 72.8%
Cc1nc(-c2ccccc2)c(-c2ccncc2)o1: 99.5%
O=C1NC(=O)C(c2cn(CCCO)c3ncccc23)=C1c1cnccn1: 93.6%
O=C1NC(=O)C(c2cn(CCCn3ccnc3)c3ccccc23)=C1Nc1ccccc1: 93.1%
CO[C@H]1C[C@@H]2CC[C@@H](C)[C@@](O)(O2)C(=O)C(=O)N2CCCC[C@H]2C(=O)O[C@H]([C@H](C)C[C@@H]2CC[C@@H](O)[C@H](OC)C2)CC(=O)[C@H](C)/C=C(\C)[C@@H](O)[C@@H](OC)C(=O)[C@H](C)C[C@H](C)/C=C/C=C/C=C/1C: 95.9%

For quick reference, copied from above (series 4):
Cn1sc(=O)n(Cc2ccccc2)c1=O: 101%
COc1ccc(C(=O)Nc2sc3c(c2C(N)=O)CCCC3)cc1OC: 98.5%
O=C(Nc1cccc(Nc2cc(Nc3cccc(C(F)(F)F)c3)ncn2)c1)C1CC1: 99.2%
N#CC(C#N)=C(N)/C(C#N)=C/c1ccc(O)cc1: 72.8%
